# Assay results of several laboratories.
# Parts stem from different laboratories: compare values within a part only. Changes are numbered by the printed parent chain.

# Series 1 — technique: RNA Bind-n-Seq; form: RNA; medium: in vitro; concentration: not given; setting: RNA with constant flanks, ends assumed; reference: input RNA pool; reading: higher = stronger binding
# Target: RING finger protein unkempt homolog, zinc fingers 1-6, GST-SBP tag (UNK, Homo sapiens, UniProt Q9C0B0, residues 30-357)
# Construct (chain): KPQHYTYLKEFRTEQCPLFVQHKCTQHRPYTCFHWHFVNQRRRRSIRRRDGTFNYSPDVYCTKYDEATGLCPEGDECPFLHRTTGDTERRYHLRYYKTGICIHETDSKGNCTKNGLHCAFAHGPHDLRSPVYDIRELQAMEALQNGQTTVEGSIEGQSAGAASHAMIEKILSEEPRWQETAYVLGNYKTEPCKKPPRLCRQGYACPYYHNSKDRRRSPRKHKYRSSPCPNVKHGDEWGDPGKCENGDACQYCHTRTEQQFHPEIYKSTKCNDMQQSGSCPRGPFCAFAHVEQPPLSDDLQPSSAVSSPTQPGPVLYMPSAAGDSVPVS
Strand,bound/input enrichment
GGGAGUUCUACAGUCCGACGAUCGCCAGCAAGCCUCAGAGUAUCCAAGAAUCAACUGGCAGUAUAAUUGAAGUUCUGAGUAAAACCGAUUCAGAAGGAGGAGUUUCAGCAAAUCAUACUAGUCGUGCAACGUCUACAGCAACACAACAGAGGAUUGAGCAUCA,0.262 ratio
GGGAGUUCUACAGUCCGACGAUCUCGCAAAGAUUUAAGUAUCUUAUAAGAACUGUUUGCCAGUGCAAUUAUGAGAAGCUGUUUCCGGUUAUGUGAAAGAGAUGUUUCCUCAUCUCUAAGGCUUACCAGAAGCUCUGAUUUGAACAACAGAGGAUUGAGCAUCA,0.114 ratio
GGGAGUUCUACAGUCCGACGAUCCCUCUUGCCAGGAGUCCAUGUUUGUUCUACCCGAACUUUGGACUGUUAACUAGAGAAGUGACCGACUGAUGAACCUUCUAGUGUUGUCUGCUCCAUACGGGAAAUGAGCUUCAAGGCCAACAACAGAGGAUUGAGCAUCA,0.0781 ratio
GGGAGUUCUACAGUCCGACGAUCUUAUACCAAGUGGAGUAUGCCAUGGAAGCCAUUGGACAUGCAGGCACCUGUUUGGGGAUUUCCGCCAAUGAUGGAGUUUUGCUUGCAGCGGAGAGGCGCAACAUCCACAAGCUUCUUGAUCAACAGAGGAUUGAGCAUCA,0.0922 ratio
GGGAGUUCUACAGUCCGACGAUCUUUCAUCUUGAGGUGGCCAAUAUGGGAUGUGGAAUUUUUACAUGAGUUACACAUGUUUGGCACCGUACUUUUGGUACAUUGUGGCUUCAGAAGGGCCAGUGUUAAAACUGCUUCCAUGUCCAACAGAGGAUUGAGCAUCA,0.136 ratio
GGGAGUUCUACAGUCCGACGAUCCGGGGGGCUUUCUGUGAAGUAAGACCAGAUGAUAAAAGGAUUCUGGAAUUUUACAGCAAGUCCGGCUGUUUUGAAAUUGCAAAAAUGGAAGGAUUUCCAAAGGAUGUGGUUAUACUUGGUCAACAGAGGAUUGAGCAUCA,0.128 ratio
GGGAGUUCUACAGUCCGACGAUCUAUUCACAACUUGGAACAUUUGCACCAAUGUGGGAUGUAUUCAAAACAUCUACAGAGAAAUCCGCAAAUUGUCAUUUGGAUCUUGUUAGAAAAUUACAGGAAUUAAUAAAGGAAGUUCAGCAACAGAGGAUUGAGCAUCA,1.87 ratio
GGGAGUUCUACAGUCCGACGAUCUUCUCCUCAUUAUUUAAAAAUGCUAAACCUUGUAUCUCACUUUUUCUCUAACACUGAUUUAACCGCUAACGAGGUAGAAGCAACAUUCAUUCUCCUGGUCUUACAUAUGAAUUUAAGUAUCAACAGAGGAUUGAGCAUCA,0.364 ratio

# Series 2 — technique: RNA Bind-n-Seq; form: RNA; medium: in vitro; concentration: 365 nM; reference: no-protein control; reading: higher = stronger binding
# Target: RNA binding protein fox-1 homolog 2, RRM domain, GST-SBP tag (RBFOX2, Homo sapiens, UniProt O43251-10, residues 100-194)
# Setting: natural RNA segment, single round, ends assumed
# Construct (chain): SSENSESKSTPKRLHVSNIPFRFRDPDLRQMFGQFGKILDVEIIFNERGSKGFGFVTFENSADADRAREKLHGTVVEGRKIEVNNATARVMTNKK
Strand,RBNS enrichment (R)
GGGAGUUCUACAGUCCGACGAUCCACUUAUAAUUUCUACUACUGCACUACUGUCCAUUGUGGGAUGAUUAAACAUGGUAUUUAACUGUGCCUCUGUCUGCUGGGUGUGCUGCUUCACGCUACGUCUCGGACCCUGGAAUUCUCGGGUGCCAA,0.338
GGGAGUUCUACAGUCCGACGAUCUUUGACUUGCAUCUGAGAGUUUCUUGUUUCAGUAAAAAAAGAAAAGACAAAAAAAUCAGCUUUGGAAAGUAAUUUAAAUGUACCUUAUUUUUUUUUUCUUUAUGUUUUCUUGGAAUUCUCGGGUGCCAA,2.5
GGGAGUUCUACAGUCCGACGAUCAAACCCCUUCCAGAUCUGAUAUGGGACUAUUAAUUUUUAUGCUGUUAAUUGGUAUUCAUUCACAAUGCAGUUGAAGGGGGAAGGCUCCACUGCAUUCUUUGGCUAAGGCCUGGAAUUCUCGGGUGCCAA,0.483
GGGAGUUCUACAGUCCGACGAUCCUCCAUUUUAAAUUUGAGUUUCCCUUUCGUUUUUACUCACCACCAAAGAAUCUCAAAUGUAAAAUUUUAUAUUGGGUUUGAACCACUGACGUGUCCAUUCUGAUAUAUGCUGGAAUUCUCGGGUGCCAA,0.504
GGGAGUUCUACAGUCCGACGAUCACAAAAAAAUAUCCUGGGCAAUAAAAAAAAUAUUUUAAACCAGCUUUGGAGCCACUUUUUUGUCUAAGCCUCCUAAUAGCGUCUUUUAAUUUAUAGGAGGCAAACUGUAUUGGAAUUCUCGGGUGCCAA,0.651
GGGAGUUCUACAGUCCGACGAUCCCAUGUAAAUAAGUAGACUGUAAAGAGAGACUAUCUUGCAUUAUGACUGUAUGAAUUUCUAAGUGCUGUUUGAUUGGGUUUUGUUACAGGAUGUAUAAUUUAUCUGUCUAUGGAAUUCUCGGGUGCCAA,2.54
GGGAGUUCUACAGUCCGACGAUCGGGAUCCUUAGGCUCAGCUGUCUGUCUAAUCCCAGAGCUAAGCCCUUUCUGCUUCGGGCAGCCUGGACUCCAGCCCUGAGUAUAGAGGCGGUGUGGAUGGCUGGCCCUCAUGGAAUUCUCGGGUGCCAA,0.553
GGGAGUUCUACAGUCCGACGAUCUUACUAUGCCUCAAGCCCAGUUUGCUUUUGCCGCAGCGAUGGGGCCAGUCUCAUUCCUCCCCAGGAGUGAAACUUGCUUCAGCUGAAAAGGUUGGGUGCAUUGUCAGUAAUGGAAUUCUCGGGUGCCAA,0.258

# Series 3 — target: CCNB2, cyclin fold, Cln2 fusion (human); technique: yeast growth competition, sequencing; medium: yeast; setting: weak parent motif; reference: not given; reading: higher = stronger binding
# Starting sequence: RB1 docking peptide (human); PKPLKKLRFDIEG
Variant,normalised enrichment score
PKPLKKLRFDDEG [I11D],0.129
PKPLKKLRFGIEG [D10G],1.22
PKPLKKLRFDIEK [G13K],0.655
PKPLKKLYFDIEG [R8Y],0.661
PKPLKKLGFDIEG [R8G],-0.449
PKPLKKLRFDIEI [G13I],0.56
PKPLKKLRFDIES [G13S],0.42
AKPLKKLRFDIEG [P1A],0.432
PKPLKKLRFDISG [E12S],0.125

# Series 4 — technique: DHFR PCA, deep sequencing; medium: yeast; with: (+)-ABA 1.4 µM; reference: wild-type fitted maximum; reading: higher = stronger binding
# Target: ABI1, truncated, D143A, DHFR fusion (Arabidopsis thaliana)
# Setting: methotrexate growth selection, single substitutions
# Starting sequence: PYL1, truncated, DHFR fusion (Arabidopsis thaliana); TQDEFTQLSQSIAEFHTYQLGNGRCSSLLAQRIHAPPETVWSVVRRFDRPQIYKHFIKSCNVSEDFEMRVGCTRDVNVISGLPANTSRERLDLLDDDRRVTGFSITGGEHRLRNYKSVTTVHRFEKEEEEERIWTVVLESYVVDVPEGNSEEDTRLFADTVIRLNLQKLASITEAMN
Variant,relative binding score [%]
E125C,70.3
Y115P,-1.95
T120A,0.039
G71N,0.182
L8Y,32.6
R155P,8.2
L82F,56
I105Y,-2.69
V40K,-29.2
L169H,3.55
H55K,72.3
D3W,40.3
I52Y,26.6
V142Q,47.1
Y141C,3.62
L28K,4.92
V70N,-2.37

# A few entries again (series 2):
Strand,RBNS enrichment (R)
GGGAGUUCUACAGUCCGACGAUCCACUUAUAAUUUCUACUACUGCACUACUGUCCAUUGUGGGAUGAUUAAACAUGGUAUUUAACUGUGCCUCUGUCUGCUGGGUGUGCUGCUUCACGCUACGUCUCGGACCCUGGAAUUCUCGGGUGCCAA,0.338
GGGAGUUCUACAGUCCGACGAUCCCAUGUAAAUAAGUAGACUGUAAAGAGAGACUAUCUUGCAUUAUGACUGUAUGAAUUUCUAAGUGCUGUUUGAUUGGGUUUUGUUACAGGAUGUAUAAUUUAUCUGUCUAUGGAAUUCUCGGGUGCCAA,2.54
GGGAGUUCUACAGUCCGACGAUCUUACUAUGCCUCAAGCCCAGUUUGCUUUUGCCGCAGCGAUGGGGCCAGUCUCAUUCCUCCCCAGGAGUGAAACUUGCUUCAGCUGAAAAGGUUGGGUGCAUUGUCAGUAAUGGAAUUCUCGGGUGCCAA,0.258
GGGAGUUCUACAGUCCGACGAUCAAACCCCUUCCAGAUCUGAUAUGGGACUAUUAAUUUUUAUGCUGUUAAUUGGUAUUCAUUCACAAUGCAGUUGAAGGGGGAAGGCUCCACUGCAUUCUUUGGCUAAGGCCUGGAAUUCUCGGGUGCCAA,0.483
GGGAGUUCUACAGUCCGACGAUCGGGAUCCUUAGGCUCAGCUGUCUGUCUAAUCCCAGAGCUAAGCCCUUUCUGCUUCGGGCAGCCUGGACUCCAGCCCUGAGUAUAGAGGCGGUGUGGAUGGCUGGCCCUCAUGGAAUUCUCGGGUGCCAA,0.553
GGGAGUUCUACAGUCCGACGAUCACAAAAAAAUAUCCUGGGCAAUAAAAAAAAUAUUUUAAACCAGCUUUGGAGCCACUUUUUUGUCUAAGCCUCCUAAUAGCGUCUUUUAAUUUAUAGGAGGCAAACUGUAUUGGAAUUCUCGGGUGCCAA,0.651
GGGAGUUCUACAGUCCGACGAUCUUUGACUUGCAUCUGAGAGUUUCUUGUUUCAGUAAAAAAAGAAAAGACAAAAAAAUCAGCUUUGGAAAGUAAUUUAAAUGUACCUUAUUUUUUUUUUCUUUAUGUUUUCUUGGAAUUCUCGGGUGCCAA,2.5
